Experimental data of several laboratories.
Protocols differ between the studies behind these lines. Values joined by “and” are separate records of one study, mostly repeats; a detail may differ.
Protein-S-isoprenylcysteine O-methyltransferase: Protein-S-isoprenylcysteine O-methyltransferase (Homo sapiens, UniProt O60725)
PTGS2: Prostaglandin G/H synthase 2 (PTGS2, Homo sapiens, UniProt P35354)
USP5: Ubiquitin carboxyl-terminal hydrolase 5 (USP5, Homo sapiens, UniProt P45974)
Coelenterazine h 2-monooxygenase: Coelenterazine h 2-monooxygenase (Renilla reniformis, UniProt P27652)

SMILES	tested on	test	test system	setting	endpoint	value
CN(C)C/C=C/C(=O)Nc1ccc2nc(NCCCCCN(C)C)nc(NCCCCCCN(C)C)c2c1	PRMT6 (Homo sapiens, UniProt Q96LA8)	enzyme activity, inhibitor, radiometric		10 µM	inhibition	80%
C[Si](C)(C)C[C@H](CN)CC(=O)O	NMDA receptor, rat	binding, radioligand binding		250 µM, added: [3H]TCP	inhibition	2%
CCn1c2ccccc2c2cc(CNCCCn3ccnc3)ccc21	DRD3 (Homo sapiens, UniProt P35462)	enzyme activity, inhibitor		10 µM	inhibition	89.3%
CCCCCCCCN(CCC(=O)Nc1ccccc1)C(=O)c1ncc[nH]1	Protein-S-isoprenylcysteine O-methyltransferase	enzyme activity	Sf9 membranes	50 µM, added: [3H]S-adenosylmethionine, biotin-farnesyl-L-cysteine	inhibition	34%
NNC1(c2nnnn2Cc2ccc(Cl)cc2)CCN(Cc2ccccc2)CC1	Endothiapepsin (EAPA, Cryphonectria parasitica, UniProt P11838)	enzyme activity, inhibitor		200 µM	inhibition	46.1%
CCCCCCCCN(CCC(=O)Nc1ccccc1)C(=O)c1ccccn1	Protein-S-isoprenylcysteine O-methyltransferase	enzyme activity	Sf9 membranes	50 µM, added: [3H]S-adenosylmethionine, biotin-farnesyl-L-cysteine	inhibition	73%
CS(=O)(=O)c1ccc(-n2cc(C=NN=c3[nH]c(-c4ccc(Br)cc4)cs3)c(-c3ccc(Br)cc3)n2)cc1	PTGS2	enzyme activity		100 µM	inhibition	91.2%
CC1=NN(c2ccccc2)C(=O)C1=NOCC(=O)N1CCCc2ccccc21	USP5	enzyme activity, inhibitor		17 µM	inhibition	61%
CS(=O)(=O)c1ccc(-n2cc(C=NN=c3[nH]c(-c4ccc([N+](=O)[O-])cc4)cs3)c(-c3ccc(Br)cc3)n2)cc1	PTGS2	enzyme activity		1 µM	inhibition	41.9%
CN1CCC(c2ccc(-c3ccc([C@H]4[C@@H](F)[C@@H](F)C[C@@H](F)[C@H]4F)cc3)cn2)CC1		liver microsome stability	cynomolgus liver microsomes	1 µM	hepatic clearance	18 mL/min/kg
COc1ccc(C2CC(Nc3ccc(-c4ccc(NC5=NN(C(C)=O)C(c6ccc(OC)cc6)C5)cc4)cc3)=NN2C(C)=O)cc1 (stereo not shown)	cyclooxygenase, rabbit		distal colon mucosa microsomes	10 µM	inhibition	75%
CC(C)Cc1ccc(-c2nn(-c3ccc(S(C)(=O)=O)cc3)cc2C=NN=c2[nH]c(-c3ccc(Br)cc3)cs2)cc1	PTGS2	enzyme activity		1 µM	inhibition	64.2%
Cc1cc(=O)oc2nc(S)nc(O)c12	USP5	enzyme activity, inhibitor		17 µM	inhibition	6%
C/C=C(/C)C(=O)O[C@@H]1C=C(C)CC[C@]2(O)[C@@H](C(C)C)CC(=O)[C@]12C	PTGS2	enzyme activity, inhibitor		0.12 µg/mL	inhibition	0%
O=C(O)c1cc(-c2ccc(CN3CCCC(CO)C3)o2)ccc1Cl (stereo not shown)	DNA dC->dU-editing enzyme APOBEC-3A (Homo sapiens, UniProt P31941)	deaminase activity, inhibitor		concentration not given	inhibition	no inhibition
Cc1ccc(C)n1-c1cc(Cl)ccc1C(=O)O	USP5	enzyme activity, inhibitor		17 µM	inhibition	64%
Br.CCCCCCCCCn1c2c(c(=N)c3c1CCC3)CCCC2	Coelenterazine h 2-monooxygenase	luciferase activity, inhibitor, luminescence counter-screen		concentration not given, test 2	inhibition	101% and 83.1%
Cc1cc(C(=O)NN=C2CC(=O)c3ccccc32)c(C)o1	USP5	enzyme activity, inhibitor		17 µM	inhibition	23%
O=C(c1ccc([C@H]2[C@@H](F)[C@@H](F)C[C@@H](F)[C@H]2F)cc1)N1CCC(F)CC1		hepatocyte stability	cryopreserved rat hepatocytes	1 µM	hepatic clearance	39 mL/min/kg
Cc1ccc(C=C2SC(=O)NC2=S)o1	USP5	enzyme activity, inhibitor		17 µM	inhibition	83%

SMILES	tested on	test	test system	setting	endpoint	value
C/C=C/C(=O)Nc1ccc2nc(NCCCCCN(C)C)nc(NCCCCCCN(C)C)c2c1	DNA (cytosine-5)-methyltransferase 3A, with DNMT3L (DNMT3A, Homo sapiens, UniProt Q9Y6K1)	enzyme activity		10 µM	inhibition	-80%
CC=C(C)C(=O)OC1CC2C(C=C(C)C3C(OC(C)=O)CC(=O)C13C)OC(=O)C2C (stereo not shown)	PTGS2	enzyme activity, inhibitor		7.81 µg/mL	inhibition	0%
CC1CCC(C(C)C)C(OC(=O)Cn2c(-c3ccc(Br)cc3)[n+](C)c3ccccc32)C1.[Cl-] (stereo not shown)	Coelenterazine h 2-monooxygenase	luciferase activity, inhibitor, luminescence counter-screen		concentration not given, test 1	inhibition	80.5% and 87.6%
CC(C)C[C@H](NC(=O)[C@H](Cc1ccc(O)cc1)NC(=O)[C@@H](CCCNC(=N)N)NC(=O)[C@@H](CO)NC(=O)[C@H](Cc1ccccc1)NC(=O)[C@H](CC1CCCCC1)NC(=O)[C@H](CC(=O)O)NC(=O)CN1CCN(CC(=O)O)CCN(CC(=O)O)CCN(CC(=O)O)CC1)C(=O)N[C@@H](Cc1c[nH]c2ccccc12)C(=O)N[C@@H](CO)C(=O)O [copper-64 labelled]			human, bone	concentration not given, 1 h	activity concentration	1100 Bq/mL and 614 Bq/mL and 560 Bq/mL and 764 Bq/mL and 574 Bq/mL and 454 Bq/mL
Cc1cccc(O[C@H]2CCC[C@@H](C(C)CNCc3ccncc3)C2)c1 (relative stereo)	GRK6 (Homo sapiens, UniProt P43250)	enzyme activity, inhibitor		1 µM	inhibition	9%
CN1C=C/C(=C\c2cc[n+](C)c3ccccc23)c2ccccc21	Coelenterazine h 2-monooxygenase	luciferase activity, inhibitor, luminescence counter-screen		concentration not given, test 3 new dilution	inhibition	97.5% and 79.1%
C[Si]1(C[C@H](CN)CC(=O)O)CCCC1	CCKBR (Homo sapiens, UniProt P32239)	cell-free assay, inhibitor		70 µM	inhibition	8%
O=C(CCCCCCc1ccccc1)c1ncc(-c2ccc(CBr)cn2)o1	recombinant FAAH (rat)	enzyme activity		80 nM, 3 h, 22 °C, before dialysis	inhibition	~80%
CC(=O)C12NC(C)(C)CC1(C)C(=O)C1=C2c2c(c3c4n2C(C)(C)CC2=C4C4(CC(C)(C)NC(C)(C4)C2=O)CC3(C)C)C(=O)C(C)(C)N1 (single isomer, unassigned; (+))	KCNQ2 (Homo sapiens, UniProt O43526)	ion current, inhibitor, patch clamp	HEK-293T	40 µM	inhibition	8%
CC(=O)N1C(=O)C(=C2SC(=S)N(C(C)C(=O)O)C2=O)c2ccccc21 (stereo not shown)	USP5	enzyme activity, inhibitor		17 µM	inhibition	7%
O=C1c2sc(-c3ccc(N4CCC(CO)CC4)nc3F)nc2CCN1c1cccnc1	HRH1 (Homo sapiens, UniProt P35367)	ligand displacement, radioligand		1 µM	inhibition	-7%
N#C/C(=C\c1ccc(N2CCOCC2)o1)C(=O)NCC1CCCO1 (stereo not shown)	USP5	enzyme activity, inhibitor		17 µM	inhibition	18%
CCCCCCCCN(CCC(=O)Nc1ccccc1)C(=O)c1ccoc1	Protein-S-isoprenylcysteine O-methyltransferase	enzyme activity	Sf9 membranes	50 µM, added: [3H]S-adenosylmethionine, biotin-farnesyl-L-cysteine	inhibition	81%
O=C1c2sc(-c3ccc(N4CCC(F)C4)nc3F)nc2CCN1c1cccnc1 (stereo not shown)	TAR DNA-binding protein 43, aggregated (TARDBP, Homo sapiens, UniProt Q13148)	radioligand binding	homogenate, FTLD-TDP, type A	16 nM, added: [3H]ACI-19626	inhibition	2.57% and 9.36%
CO[C@@H]1OC[C@@H](O)[C@H](O)[C@H]1O	PTGS2	enzyme activity, inhibitor		7.81 µg/mL	inhibition	56.9%
Cc1ccc2c(c1)sc(-c1ccc(N(C)C)cc1)[n+]2C.[I-]	Coelenterazine h 2-monooxygenase	luciferase activity, inhibitor, luminescence counter-screen		concentration not given, test 3 new dilution	inhibition	89.2% and 91.2%
CCn1cc(C(=O)O)c(=O)c2c(N)c(F)c(NC3CCCCC3)cc21	MAST3 (Homo sapiens, UniProt O60307)	kinase activity		0.1 µM, added: ATP at Km	inhibition	15.7%
CS(=O)(=O)c1ccc(-n2cc(C=NN=c3[nH]c(-c4ccc([N+](=O)[O-])cc4)cs3)c(-c3ccc([N+](=O)[O-])cc3)n2)cc1	PTGS2	enzyme activity		100 µM	inhibition	91.4%
COc1cccc(-c2cc(F)c(NC(=O)Nc3sc(C)nc3C(=O)O)c(F)c2)c1	DHODH (Homo sapiens, UniProt Q02127)	enzyme activity, DCIP colorimetric		0.10 µM	inhibition	91.5% and 92.4% and 93.3%
Cc1cc(N)c(O)cc1C	USP5	enzyme activity, inhibitor		17 µM	inhibition	65%

Repeated from above:
SMILES	tested on	test	test system	setting	endpoint	value
COc1ccc(C2CC(Nc3ccc(-c4ccc(NC5=NN(C(C)=O)C(c6ccc(OC)cc6)C5)cc4)cc3)=NN2C(C)=O)cc1 (stereo not shown)	cyclooxygenase, rabbit		distal colon mucosa microsomes	10 µM	inhibition	75%
CC(C)Cc1ccc(-c2nn(-c3ccc(S(C)(=O)=O)cc3)cc2C=NN=c2[nH]c(-c3ccc(Br)cc3)cs2)cc1	PTGS2	enzyme activity		1 µM	inhibition	64.2%
Cc1cc(=O)oc2nc(S)nc(O)c12	USP5	enzyme activity, inhibitor		17 µM	inhibition	6%
